Results gathered from unrelated publications.
A part holds a random share of what one study measured. Substitutions count along the parent as printed.
Sequence of UniProt Q96SW2 (whole entry, looked up): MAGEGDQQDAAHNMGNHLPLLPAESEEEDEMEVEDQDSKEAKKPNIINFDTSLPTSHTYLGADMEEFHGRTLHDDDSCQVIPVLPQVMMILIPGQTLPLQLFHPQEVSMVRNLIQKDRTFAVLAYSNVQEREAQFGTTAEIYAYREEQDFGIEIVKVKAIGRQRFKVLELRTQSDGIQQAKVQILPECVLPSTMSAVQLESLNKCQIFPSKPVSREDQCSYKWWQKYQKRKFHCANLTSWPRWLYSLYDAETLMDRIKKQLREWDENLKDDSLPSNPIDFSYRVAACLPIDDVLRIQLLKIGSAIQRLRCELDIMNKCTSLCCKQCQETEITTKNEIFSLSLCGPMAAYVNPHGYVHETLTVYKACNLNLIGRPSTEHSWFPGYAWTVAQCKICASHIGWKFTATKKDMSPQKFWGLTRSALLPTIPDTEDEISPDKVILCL
Sequence of UniProt Q9UKS7 (whole entry, looked up): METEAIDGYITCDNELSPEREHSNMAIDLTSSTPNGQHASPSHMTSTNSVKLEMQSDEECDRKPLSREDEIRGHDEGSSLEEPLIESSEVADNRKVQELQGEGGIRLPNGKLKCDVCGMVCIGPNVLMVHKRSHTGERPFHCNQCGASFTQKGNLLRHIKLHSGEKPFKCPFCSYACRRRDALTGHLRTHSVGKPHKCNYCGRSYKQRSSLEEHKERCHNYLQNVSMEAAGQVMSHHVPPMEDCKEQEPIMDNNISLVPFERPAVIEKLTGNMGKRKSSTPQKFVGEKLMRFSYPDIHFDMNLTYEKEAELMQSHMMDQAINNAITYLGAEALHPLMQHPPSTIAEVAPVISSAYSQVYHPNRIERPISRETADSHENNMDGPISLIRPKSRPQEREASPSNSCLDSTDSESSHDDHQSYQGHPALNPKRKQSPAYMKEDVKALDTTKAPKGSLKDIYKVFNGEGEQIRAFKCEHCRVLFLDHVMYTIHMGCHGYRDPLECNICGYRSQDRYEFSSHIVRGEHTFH

Block 1 — technique: protein binding microarray; molecule type: double-stranded DNA, one strand shown; sample: in vitro; concentration: not given; relative to: not given; direction: higher = stronger binding; quantity: E-score
Target: Histone acetyltransferase KAT6A, both winged helices, GST fusion (KAT6A, Homo sapiens, UniProt Q92794, residues 1-181)
Setting: 8-mer, flanks averaged, mean of 2 arrays, mostly near background
Target sequence (chain): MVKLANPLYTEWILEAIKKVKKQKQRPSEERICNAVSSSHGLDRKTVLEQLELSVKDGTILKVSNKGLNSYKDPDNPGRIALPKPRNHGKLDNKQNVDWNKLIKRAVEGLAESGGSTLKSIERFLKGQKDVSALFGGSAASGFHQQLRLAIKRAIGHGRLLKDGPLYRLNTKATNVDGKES
GTTCCTAA: -0.0716
AGATACAA: 0.00447
GAGGCGGA: 0.114
CGTCATCA: 0.0508
AGGTCCCC: -0.0357
AGCATCAA: -0.167
CTTACTTA: -0.0878
CTCTCTGC: -0.057

Block 2 — technique: two-hybrid; relative to: out of 4 tests; direction: higher = firmer interaction; quantity: positive tests
Partner: ARF12 500-593 (Arabidopsis thaliana, UniProt Q9XID4)
B1: ARF6 790-935 (Arabidopsis thaliana, UniProt Q9ZTX8); chain SENPQSNTFVKVYKSGSFGRSLDISKFSSYHELRSELARMFGLEGQLEDPVRSGWQLVFVDRENDVLLLGDDPWPEFVSSVWCIKILSPQEVQQMGKRGLELLNSAPSSNNVDKLPSNGNCDDFGNRSDPRNLGNGIASVGGSFNY
B2: ARF11 500-622 (Arabidopsis thaliana, UniProt Q9ZPY6); chain SPKEQKQQTSTRSRIKVQMQGTAVGRAVDLTLLRSYDELIKELEKMFEIEGELSPKDKWAIVFTDDEGDRMLVGDDPWNEFCKMAKKLFIYPSDEVKKMRSKSLLGDKGTIVNLESDQRTVHV
B3: IAA19 (Arabidopsis thaliana, UniProt O24409); chain MEKEGLGLEITELRLGLPGRDVAEKMMKKRAFTEMNMTSSGSNSDQCESGVVSSGGDAEKVNDSPAAKSQVVGWPPVCSYRKKNSCKEASTTKVGLGYVKVSMDGVPYLRKMDLGSSQGYDDLAFALDKLFGFRGIGVALKDGDNCEYVTIYEDKDGDWMLAGDVPWGMFLESCKRLRIMKRSDATGFGLQPRGVDE
B4: IAA28 (Arabidopsis thaliana, UniProt Q9XFM0); chain MEEEKRLELRLAPPCHQFTSNNNINGSKQKSSTKETSFLSNNRVEVAPVVGWPPVRSSRRNLTAQLKEEMKKKESDEEKELYVKINMEGVPIGRKVNLSAYNNYQQLSHAVDQLFSKKDSWDLNRQYTLVYEDTEGDKVLVGDVPWEMFVSTVKRLHVLKTSHAFSLSPRKHGKE
B5: IAA26 (Arabidopsis thaliana, UniProt Q8LAL2); chain MEGCPRNREIGPKLLDLIPQGRKWYQEDKNNTDQEKKLELRLGPPGGDEEDHSAIKKKNTEIRNIKKETEDKSFHCFNGNHFSPSNKTTSVPHISQKRTAPGPVVGWPPVRSFRKNLASTSSSKLGNESSHGGQINKSDDGEKQVETKKEGMFVKINMDGVPIGRKVDLNAYNSYEQLSFVVDKLFRGLLAAQRDISDGQGEEKPIIGLLDGKGEFTLTYEDNEGDKMLVGDVPWQMFVSSVKRLRVIKSSEISSALTFGCSKQEKMMH
B6: ARF8 699-811 (Arabidopsis thaliana, UniProt Q9FGV1); chain NSSNQTKNFVKVYKSGSVGRSLDISRFSSYHELREELGKMFAIEGLLEDPLRSGWQLVFVDKENDILLLGDDPWESFVNNVWYIKILSPEDVHQMGDHGEGSGGLFPQNPTHL
B7: IAA31 (Arabidopsis thaliana, UniProt Q8H174); chain MEVSNSCSSFSSSSVDSTKPSPSESSVNLSLSLTFPSTSPQREARQDWPPIKSRLRDTLKGRRLLRRGDDTSLFVKVYMEGVPIGRKLDLCVFSGYESLLENLSHMFDTSIICGNRDRKHHVLTYEDKDGDWMMVGDIPWDMFLETVRRLKITRPERY
B8: IAA15 (Arabidopsis thaliana, UniProt Q9C966); chain MSPEEYVRVWPDSGDLGGTELTLALPGTPTNASEGPKKFGNKRRFLETVDLKLGEAHENNYISSMVTNDQLVGWPPVATARKTVRRKYVKVALDGAAYLRKVDLGMYDCYGQLFTALENMFQGIITICRVTELERKGEFVATYEDKDGDLMLVGDVPWMMFVESCKRMRLMKTGDAIGL
Construct (chain): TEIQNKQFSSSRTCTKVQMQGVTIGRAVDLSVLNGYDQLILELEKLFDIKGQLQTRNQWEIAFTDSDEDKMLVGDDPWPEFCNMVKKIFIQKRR
B1 (ARF6 790-935): 0
B2 (ARF11 500-622): 0
B3 (IAA19): 0
B4 (IAA28): 0
B5 (IAA26): 0
B6 (ARF8 699-811): 0
B7 (IAA31): 3
B8 (IAA15): 0

Single results of other studies — CCND3: CCND3, cyclin fold, Cln2 fusion (human)
P1: viral docking peptide; KKVKRRLFETREL; partner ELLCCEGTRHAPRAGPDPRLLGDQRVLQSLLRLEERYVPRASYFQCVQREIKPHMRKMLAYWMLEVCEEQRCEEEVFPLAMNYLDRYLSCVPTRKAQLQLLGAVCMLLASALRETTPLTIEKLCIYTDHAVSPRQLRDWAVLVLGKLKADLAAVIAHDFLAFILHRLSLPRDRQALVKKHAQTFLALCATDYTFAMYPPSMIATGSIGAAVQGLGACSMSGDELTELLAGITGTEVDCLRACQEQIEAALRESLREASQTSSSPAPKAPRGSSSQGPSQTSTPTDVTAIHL
P1 R5K — normalised enrichment score (CCND3; yeast growth competition, sequencing; yeast; weak parent motif; relative to: not given, higher = stronger binding): 0.534
O=C1CCC(N2Cc3c(ccc4c3OCC43CCCN(Cc4ccccc4)CC3)C2=O)C(=O)N1 (stereo not drawn) — protein remaining (CRBN/Zinc finger protein Helios (Homo sapiens, UniProt Q96SW2+Q9UKS7); degrader, HiBiT; HEK293; 123.5 nM): 89.4%
KDVKRKLFAEDSS — median binding score (human cyclin A2; peptide binding, competitive growth sequencing; peptide, Saccharomyces cerevisiae, cyclin A2-Cln2 fusion strain; concentration not given, single-residue mutant peptides; relative to: unfused Cln2 strain, direction not given): 6.27
AGVKRKLFAEDSS — median binding score (human cyclin A2; peptide binding, competitive growth sequencing; peptide, Saccharomyces cerevisiae, cyclin A2-Cln2 fusion strain; concentration not given, single-residue mutant peptides; relative to: unfused Cln2 strain, direction not given): 6.47
P1 T10A — normalised enrichment score (CCND3; yeast growth competition, sequencing; yeast; weak parent motif; relative to: not given, higher = stronger binding): 0.19

Excerpt of the above (block 1):
AGATACAA: 0.00447
GAGGCGGA: 0.114
